Experimental data gathered from unrelated publications.
± gives the spread as reported.

Structure (SMILES)	assay	system	conditions	how to read	measurement	value
O=c1nc(NO)ccn1[C@@H]1O[C@H](CO)[C@@H](O)[C@H]1O	Western blot, refers to: CYP2D6	rat, normal, liver	oral, 80 mg/kg twice daily, 5 days	reference: control group	protein level	1.1 fold
Nc1nccc(-c2cn(C3CC3)c3ccccc23)n1	radiolabelled metabolite profiling	human male, plasma	oral, 110 mg, 4 h	–	plasma concentration	46.4 ng/g
CC(C)[C@H](NC(=O)CNC(=O)[C@H](CCC(N)=O)NC(=O)[C@H](C)N)C(=O)O	LC-MS/MS	human, male, plasma	intravenous, 20 mg/kg three times daily, day 1, first dose, 10 min infusion, geometric mean	–	Cmax	4390 ng/mL
C[C@H](Oc1cc(-c2cnn(C3CCN(CC[18F])CC3)c2)cnc1N)c1c(Cl)ccc(F)c1Cl	PET imaging	nude mouse, kidney	iv, 60 min post injection	–	tracer uptake	2.2 ± 0.7 %ID/cc
COc1ccc2cc(-c3ccc(-c4ccc(C)cn4)nc3)oc2c1	–	aqueous HEPES buffer	pH 7.4, zinc-free ligand, together with: quinine bisulfate reference	–	fluorescence quantum yield	0.25
C[C@H](CN(C)Cc1ccccc1)NC(=O)c1ccc(-c2noc(C(F)(F)[18F])n2)cc1	PET	Sprague-Dawley rat, female, brain and muscle	intravenous, 1 min	reference: brain SUV over muscle SUV	brain-to-muscle ratio	7.4 ± 0.62
CC(C)(O)c1ncc([S@](N)(=O)=NC(=O)Nc2c3c(cc4c2CCC4)CCC3)s1	–	healthy humans	oral, dose not given, all study parts all active	–	number of TEAEs	206
COc1ccc(-c2csc(N/N=C(\C)c3cc(O)cc(O)c3)n2)cc1	equilibrium dialysis	human, male, plasma	3 µM, 5 h, pH 7.4	–	unbound fraction	0.18%
OC1(C(F)(F)F)CCN(c2nc(Nc3ccnc(C(F)(F)F)c3)nc(-c3cccc(C(F)(F)F)n3)n2)C1 (stereo not drawn)	–	monkey, both sexes, blood	intravenous, 1 mg/kg	–	half-life	12.2 h
CN1CCN(c2cc(-c3ccccc3CO)c(N(C)C(=O)C(C)(C)c3cc(C(F)(F)F)cc(C(F)(F)F)c3)cn2)CC1	–	human plasma	–	unbound fraction	fu	< 0.03
CCCC[C@@H]1NC(=O)[C@@H](NC(=O)[C@H](CCC(=O)O)NC(=O)CNC(=O)CN2CCN(CC(=O)O)CCN(CC(=O)O)CCN(CC(=O)O)CC2)CCCCNC(=O)C[C@@H](C(N)=O)NC(=O)[C@H](C(C)C)NC(=O)[C@@H]2CCCN2C(=O)[C@H](CCCNC(=N)N)NC(=O)CNC(=O)[C@H](Cc2c[nH]c3ccccc23)NC(=O)[C@H](CCCNC(=N)N)NC(=O)[C@@H](Cc2ccccc2)NC(=O)[C@H](Cc2c[nH]cn2)NC(=O)[C@H](CCC(=O)O)NC1=O [gallium-67 labelled]	–	C57 mice, B16/F1 flank melanoma, intestine	intravenous, 0.037 MBq/mouse, 4 h	–	intestine uptake	0.35 ± 0.16 %ID
CCc1cc(Nc2nc(-c3ccc(-n4cnc(C)c4)c(F)c3)cs2)c(C)cc1C(=O)O	–	rat, plasma	oral, dose not given	–	share of drug-related material	> 10%
Cc1cc2c(cc1C1(c3ncc(C(=O)O)cn3)CC1)C(C)(C)CCC2(C)C	–	Sprague-Dawley rat, male, plasma	oral, 100 mg/kg, 2 h, sesame oil vehicle	–	HDL level	65 ± 7 mg/dL
CC/C=C\C/C=C\C/C=C\C/C=C\C/C=C\CCCCOC(CC)C(=O)O (stereo not drawn)	radioactivity, 14C-labelled	Wistar rat, male, subcutaneous fat	oral, 100 mg/kg, 1 h	–	tissue concentration	9 µg equivalents/g tissue
COc1cc2nnn(C(=O)N3COCC3(C)C)c2cc1OC	–	mouse liver microsomes	50 µM, 1 h	–	compound remaining	55%
O=C([O-])CN1CCN(CC(=O)[O-])CCN(CC(=O)NCC2CCC(C(=O)NC(Cc3ccc4ccccc4c3)C(=O)NCCCCC(NC(=O)NC(CCC(=O)O)C(=O)O)C(=O)O)CC2)CCN(CC(=O)[O-])CC1.[44Sc+3] (stereo not drawn)	transmetallation stability	–	0.5 h, 37 °C, together with: Mg2+ 10 mM	–	intact complex	98.7 ± 0.5%
Cc1[nH]c(/C=C2\C(=O)Nc3ccc(F)cc32)c(C)c1NC(=O)CCN1CCN(C)CC1	–	Beagle dog, both sexes, plasma	oral, 3 mg/kg	–	terminal half-life	11 ± 2.57 h
CCC(=O)NC1CC=C(c2cc3c(Nc4ccc5scnc5c4)ncnc3s2)CC1 (stereo not drawn)	–	BALB/c mouse, plasma	oral, 10 mg/kg, 30 min	–	concentration	453 ng/mL

Structure (SMILES)	assay	system	conditions	how to read	measurement	value
Clc1cccc(-c2nnc(/N=C/C=C/c3ccccc3)nc2/N=C/C=C/c2ccccc2)c1Cl	rotarod test	white albino mice, both sexes	intraperitoneal, 30 mg/kg	–	time on rotating rod	80.9 ± 32.1 s
C=C(c1ccc(C(=O)O)c(F)c1)c1cc2c(cc1C)C(C)(C)C=CC2(C)C	–	Sprague-Dawley rat, male, plasma	oral, 100 mg/kg, 1 h, sesame oil vehicle	–	HDL level	99 ± 7 mg/dL
NC[C@@H](C(=O)Nc1ccc(-c2cn[nH]c2)cc1)c1ccccc1	–	New Zealand White rabbits	topical, 0.1 %, first hour	reference: contralateral eye, direction not given	ocular hyperemia score	0 to 1
COc1cc2c(cc1OC)CN(CCCCn1ccc3cc(OCC[18F])ccc31)C2	–	male ICR mice	intravenous, 280 kBq, 15 min post-injection	–	blood uptake	1.19 ± 0.09 %ID/g
COc1cc(NC(C)=O)c2c(c1O)-c1c(OC)c(OC)cc3c1C(C2)N(C)CC3 (stereo not drawn)	–	rat brain homogenate	50 µg/mL, 40 d, -20 °C, long-term storage	–	remaining compound	86.6 ± 2.2%
O=[11C](OC(C(F)(F)F)C(F)(F)F)N1CCC(CNS(=O)(=O)c2ccc(Cl)cc2)CC1	PET	Sprague-Dawley rat, cerebellum	intravenous, dose not given, baseline	–	radioactivity uptake	1.58 SUV
CCCC[C@H](NC(=O)CNC(=O)CNC(=O)CN1CCN(CC(=O)O)CCN(CC(=O)O)CCN(CC(=O)O)CC1)C(=O)N[C@H]1CC(=O)NCCCC[C@@H](C(N)=O)NC(=O)[C@H](Cc2c[nH]c3ccccc23)NC(=O)[C@H](CCCNC(=N)N)NC(=O)[C@@H](Cc2ccccc2)NC(=O)[C@H](Cc2c[nH]cn2)NC1=O [copper-64 labelled]	–	female C57 mouse, B16/F1 melanoma	intravenous, 0.037 MBq, 0.5 h	reference: tumour over kidneys	uptake ratio	0.39
CC(C)C[C@@H](NC(=O)[C@H](NC(=O)[C@H]1CCCN1)[C@H](C)O)C(=O)N[C@H](Cc1c[nH]cn1)C(=O)N[C@@H](C(=O)N[C@H](Cc1c[nH]cn1)C(=O)N[C@H](CC(N)=O)C(=O)N[C@H](CCCNC(=N)N)C(=O)N[C@H](CCCNC(=N)N)C(=O)N[C@H](CCCNC(=N)N)C(=O)N[C@H](CCCNC(=N)N)C(=O)N[C@H](CCCNC(=N)N)C(N)=O)[C@H](C)O	–	Beagle dog, plasma	oral, 20 mg/kg single dose	–	fraction of AUC from gamma half-life	22%
C[C@@H](C(=O)O)N(CC(=O)N(CCS)CC(N)=O)C(=O)CN(C(=O)CN(C(=O)CN(C(=O)CN(C(=O)CN(C(=O)CN(C(=O)CN(C(=O)CN(C(=O)CN(C(=O)CN(C(=O)CN(C(=O)CN(CCS)C(=O)CN1CCNCC1)[C@@H](C)c1ccccc1)[C@@H](C)C(=O)O)[C@@H](C)C(=O)O)[C@@H](C)c1ccccc1)[C@@H](C)C(=O)O)[C@@H](C)C(=O)O)[C@@H](C)c1ccccc1)[C@@H](C)C(=O)O)[C@@H](C)C(=O)O)[C@@H](C)c1ccccc1)[C@@H](C)C(=O)O	–	distilled water	–	–	water solubility	≥ 15 mM
CN(C)c1cc(CN2CCCCC2)c(O)c2c1C[C@H]1C[C@H]3[C@H](N(C)C)C(O)=C(C(N)=O)C(=O)[C@@]3(O)C(O)=C1C2=O	–	cynomolgus monkey, plasma	intravenous, 5 mg/kg	–	half-life	15.1 h
C#CCOc1ccc(/C=C2\SC(=O)N(CC(=O)NCc3ccccc3)C2=O)cc1	inverse Kirkwood-Buff integrals	binary solvent mixture	298.15 K, mole fraction x1 0.00	–	Kirkwood-Buff integral G1,3	-6220 cm³/mol
Cc1ccccc1/N=N/c1ccc(/N=N/c2c(O)ccc3ccccc23)c(C)c1	–	extracted rat blood QC samples	0.5 µg/L, 8 h, room temperature, short-term stability	–	measured concentration	0.499 µg/L
N=C(N)NCCC[C@@H]1NC(=O)[C@H](Cc2c[nH]c3ccccc23)NC(=O)[C@@H](CC2CCCCC2)NC(=O)[C@@H]2CCCN2C(=O)[C@@H](NC(=O)CCc2ccccc2)CCCNC1=O	two-compartment model	C57BL/6J mice, plasma	intravenous, 1 mg/kg	–	alpha rate constant	0.46 min⁻¹
CCCC[C@H](NC(C)=O)C(=O)N[C@H]1CC(=O)NCCCC[C@@H](C(=O)N[C@@H](C(=O)N2CCC[C@@H]2C(N)=O)C(C)C)NC(=O)[C@H](Cc2c[nH]c3ccccc23)NC(=O)[C@H](CCCN=C(N)N)NC(=O)[C@@H](Cc2ccc3ccccc3c2)NC(=O)[C@@H]2CCCN2C1=O	–	healthy dogs, plasma	subcutaneous, 2.25 mg/kg per day, day 5, 30 min post-dose, median	–	plasma histamine	13.2 ng/mL
CC(C)(Sc1ccncc1-c1ccc(C#N)c2ccccc12)C(=O)OC1OC(C(=O)O)C(O)C(O)C1O (stereo not drawn)	–	plasma	oral, 15 mg, mild renal impairment, fasted	–	terminal half-life	10.6 h
CCC(=O)N(C)c1ccc(Cl)c(Cl)c1	–	mouse, plasma	subcutaneous, 40 mg/kg, 1 h	–	concentration	7.07 µM
C[C@]12C[C@H](c3ccc(S(C)(=O)=O)cc3)C3=C4CCC(=O)C=C4CC[C@H]3[C@@H]1CC[C@@]2(O)C(F)(F)C(F)(F)F	–	human, plasma	–	–	unbound fraction	0.05
CCCC[C@H](NC(=O)CNC(=O)CNC(=O)CN1CCN(CC(=O)O)CCN(CC(=O)O)CC1)C(=O)N[C@H]1CC(=O)NCCCC[C@@H](C(N)=O)NC(=O)[C@H](Cc2c[nH]c3ccccc23)NC(=O)[C@H](CCCNC(=N)N)NC(=O)[C@@H](Cc2ccccc2)NC(=O)[C@H](Cc2c[nH]cn2)NC1=O [gallium-67 labelled]	–	female C57 mice, B16/F1 melanoma	intravenous, 0.037 MBq, 0.5 h	reference: tumour over liver	tumour to tissue ratio	16.1

For quick reference, copied from above:
Structure (SMILES)	assay	system	conditions	how to read	measurement	value
N=C(N)NCCC[C@@H]1NC(=O)[C@H](Cc2c[nH]c3ccccc23)NC(=O)[C@@H](CC2CCCCC2)NC(=O)[C@@H]2CCCN2C(=O)[C@@H](NC(=O)CCc2ccccc2)CCCNC1=O	two-compartment model	C57BL/6J mice, plasma	intravenous, 1 mg/kg	–	alpha rate constant	0.46 min⁻¹
Cc1cc2c(cc1C1(c3ncc(C(=O)O)cn3)CC1)C(C)(C)CCC2(C)C	–	Sprague-Dawley rat, male, plasma	oral, 100 mg/kg, 2 h, sesame oil vehicle	–	HDL level	65 ± 7 mg/dL
CN1CCN(c2cc(-c3ccccc3CO)c(N(C)C(=O)C(C)(C)c3cc(C(F)(F)F)cc(C(F)(F)F)c3)cn2)CC1	–	human plasma	–	unbound fraction	fu	< 0.03
Cc1ccccc1/N=N/c1ccc(/N=N/c2c(O)ccc3ccccc23)c(C)c1	–	extracted rat blood QC samples	0.5 µg/L, 8 h, room temperature, short-term stability	–	measured concentration	0.499 µg/L
C[C@H](Oc1cc(-c2cnn(C3CCN(CC[18F])CC3)c2)cnc1N)c1c(Cl)ccc(F)c1Cl	PET imaging	nude mouse, kidney	iv, 60 min post injection	–	tracer uptake	2.2 ± 0.7 %ID/cc
